Assay results gathered from unrelated publications.
Numbers after ± are the reported error.
Aryl hydrocarbon receptor: Aryl hydrocarbon receptor (Danio rerio, UniProt Q9YGV3)
HDAC6 ZnF-UBD domain: Protein deacetylase HDAC6, ZnF-UBD domain (HDAC6, Homo sapiens, UniProt Q9UBN7)
Chain of UniProt Q9UBN7 (whole entry, looked up): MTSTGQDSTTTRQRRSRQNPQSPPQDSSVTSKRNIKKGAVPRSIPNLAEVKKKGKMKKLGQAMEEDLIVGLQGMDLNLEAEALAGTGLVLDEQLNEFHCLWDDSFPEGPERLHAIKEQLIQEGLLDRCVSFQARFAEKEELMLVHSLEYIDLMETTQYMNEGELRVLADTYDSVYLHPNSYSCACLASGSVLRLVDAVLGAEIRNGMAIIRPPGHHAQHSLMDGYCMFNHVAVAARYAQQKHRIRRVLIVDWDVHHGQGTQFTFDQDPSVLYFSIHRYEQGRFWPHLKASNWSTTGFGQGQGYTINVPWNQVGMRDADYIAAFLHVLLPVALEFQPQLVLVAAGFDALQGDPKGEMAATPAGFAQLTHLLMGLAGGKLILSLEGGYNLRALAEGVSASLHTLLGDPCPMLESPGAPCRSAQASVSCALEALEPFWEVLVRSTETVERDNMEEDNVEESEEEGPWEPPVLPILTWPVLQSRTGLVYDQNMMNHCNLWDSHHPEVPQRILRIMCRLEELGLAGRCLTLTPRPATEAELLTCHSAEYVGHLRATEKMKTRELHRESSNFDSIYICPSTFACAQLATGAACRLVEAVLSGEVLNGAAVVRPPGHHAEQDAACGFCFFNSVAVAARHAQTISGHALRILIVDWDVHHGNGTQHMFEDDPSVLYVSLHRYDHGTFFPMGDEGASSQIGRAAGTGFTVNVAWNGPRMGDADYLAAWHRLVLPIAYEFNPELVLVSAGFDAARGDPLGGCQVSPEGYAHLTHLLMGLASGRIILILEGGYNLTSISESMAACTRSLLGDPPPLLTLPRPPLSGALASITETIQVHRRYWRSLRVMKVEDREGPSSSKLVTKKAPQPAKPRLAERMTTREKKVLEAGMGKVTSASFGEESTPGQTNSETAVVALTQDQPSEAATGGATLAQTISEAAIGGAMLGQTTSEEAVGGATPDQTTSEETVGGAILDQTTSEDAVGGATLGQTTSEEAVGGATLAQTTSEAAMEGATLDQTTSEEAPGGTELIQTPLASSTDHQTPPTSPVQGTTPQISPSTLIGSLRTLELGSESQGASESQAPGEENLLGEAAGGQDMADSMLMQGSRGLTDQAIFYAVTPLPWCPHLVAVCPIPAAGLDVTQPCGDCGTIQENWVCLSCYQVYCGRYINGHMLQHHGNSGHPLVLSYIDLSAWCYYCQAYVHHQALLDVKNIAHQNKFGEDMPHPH
T1: DNA aptamer; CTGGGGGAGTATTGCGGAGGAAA
Chain of UniProt Q9UKI8 (whole entry, looked up): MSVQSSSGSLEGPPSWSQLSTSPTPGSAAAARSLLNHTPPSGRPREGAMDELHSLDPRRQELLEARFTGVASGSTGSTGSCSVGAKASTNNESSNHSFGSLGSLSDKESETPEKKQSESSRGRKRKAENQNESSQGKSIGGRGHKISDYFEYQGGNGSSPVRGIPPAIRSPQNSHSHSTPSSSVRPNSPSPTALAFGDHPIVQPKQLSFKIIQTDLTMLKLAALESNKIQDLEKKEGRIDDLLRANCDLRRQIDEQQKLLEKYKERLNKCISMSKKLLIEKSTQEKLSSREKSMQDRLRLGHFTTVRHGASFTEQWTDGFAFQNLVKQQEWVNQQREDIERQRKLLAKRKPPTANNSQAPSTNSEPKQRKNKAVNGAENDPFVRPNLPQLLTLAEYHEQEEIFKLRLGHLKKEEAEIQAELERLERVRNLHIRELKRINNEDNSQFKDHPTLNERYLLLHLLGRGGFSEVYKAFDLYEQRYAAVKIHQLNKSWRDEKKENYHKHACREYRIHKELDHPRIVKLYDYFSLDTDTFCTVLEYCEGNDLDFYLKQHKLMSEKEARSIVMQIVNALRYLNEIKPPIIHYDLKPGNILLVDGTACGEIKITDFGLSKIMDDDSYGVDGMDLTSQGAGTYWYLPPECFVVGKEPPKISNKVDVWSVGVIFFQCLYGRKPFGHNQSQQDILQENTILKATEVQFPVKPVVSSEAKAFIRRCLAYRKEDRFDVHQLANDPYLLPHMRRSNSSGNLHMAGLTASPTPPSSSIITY
Chain of UniProt Q9UJQ4 (whole entry, looked up): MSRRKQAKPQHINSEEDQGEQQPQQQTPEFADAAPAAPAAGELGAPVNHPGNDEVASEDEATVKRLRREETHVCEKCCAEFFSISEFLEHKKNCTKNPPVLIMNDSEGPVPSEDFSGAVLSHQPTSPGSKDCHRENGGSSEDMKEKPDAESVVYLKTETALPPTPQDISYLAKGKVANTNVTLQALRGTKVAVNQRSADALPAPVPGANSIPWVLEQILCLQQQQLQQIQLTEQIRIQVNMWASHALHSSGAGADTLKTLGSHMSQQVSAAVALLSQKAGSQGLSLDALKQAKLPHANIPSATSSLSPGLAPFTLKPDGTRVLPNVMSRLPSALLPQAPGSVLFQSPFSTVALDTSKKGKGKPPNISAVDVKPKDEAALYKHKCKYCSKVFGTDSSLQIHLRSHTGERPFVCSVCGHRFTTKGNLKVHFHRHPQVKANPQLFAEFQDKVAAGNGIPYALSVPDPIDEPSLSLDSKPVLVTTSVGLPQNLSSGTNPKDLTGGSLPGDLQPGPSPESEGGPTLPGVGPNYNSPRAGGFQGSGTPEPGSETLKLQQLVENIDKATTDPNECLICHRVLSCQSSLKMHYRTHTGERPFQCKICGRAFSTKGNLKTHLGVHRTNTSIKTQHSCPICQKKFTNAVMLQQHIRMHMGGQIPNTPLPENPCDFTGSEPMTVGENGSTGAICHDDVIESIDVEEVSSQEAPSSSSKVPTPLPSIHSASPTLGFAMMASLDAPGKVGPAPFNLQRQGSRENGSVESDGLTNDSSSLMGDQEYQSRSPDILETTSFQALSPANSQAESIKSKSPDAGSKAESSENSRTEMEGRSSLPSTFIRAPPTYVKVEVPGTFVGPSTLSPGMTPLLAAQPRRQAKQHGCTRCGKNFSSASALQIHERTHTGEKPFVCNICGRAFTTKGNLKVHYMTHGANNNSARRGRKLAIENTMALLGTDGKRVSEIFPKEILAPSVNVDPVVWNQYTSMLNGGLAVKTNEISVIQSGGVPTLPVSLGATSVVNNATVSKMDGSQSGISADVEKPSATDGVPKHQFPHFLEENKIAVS
Chain of UniProt P00519 (whole entry, unmodified, looked up): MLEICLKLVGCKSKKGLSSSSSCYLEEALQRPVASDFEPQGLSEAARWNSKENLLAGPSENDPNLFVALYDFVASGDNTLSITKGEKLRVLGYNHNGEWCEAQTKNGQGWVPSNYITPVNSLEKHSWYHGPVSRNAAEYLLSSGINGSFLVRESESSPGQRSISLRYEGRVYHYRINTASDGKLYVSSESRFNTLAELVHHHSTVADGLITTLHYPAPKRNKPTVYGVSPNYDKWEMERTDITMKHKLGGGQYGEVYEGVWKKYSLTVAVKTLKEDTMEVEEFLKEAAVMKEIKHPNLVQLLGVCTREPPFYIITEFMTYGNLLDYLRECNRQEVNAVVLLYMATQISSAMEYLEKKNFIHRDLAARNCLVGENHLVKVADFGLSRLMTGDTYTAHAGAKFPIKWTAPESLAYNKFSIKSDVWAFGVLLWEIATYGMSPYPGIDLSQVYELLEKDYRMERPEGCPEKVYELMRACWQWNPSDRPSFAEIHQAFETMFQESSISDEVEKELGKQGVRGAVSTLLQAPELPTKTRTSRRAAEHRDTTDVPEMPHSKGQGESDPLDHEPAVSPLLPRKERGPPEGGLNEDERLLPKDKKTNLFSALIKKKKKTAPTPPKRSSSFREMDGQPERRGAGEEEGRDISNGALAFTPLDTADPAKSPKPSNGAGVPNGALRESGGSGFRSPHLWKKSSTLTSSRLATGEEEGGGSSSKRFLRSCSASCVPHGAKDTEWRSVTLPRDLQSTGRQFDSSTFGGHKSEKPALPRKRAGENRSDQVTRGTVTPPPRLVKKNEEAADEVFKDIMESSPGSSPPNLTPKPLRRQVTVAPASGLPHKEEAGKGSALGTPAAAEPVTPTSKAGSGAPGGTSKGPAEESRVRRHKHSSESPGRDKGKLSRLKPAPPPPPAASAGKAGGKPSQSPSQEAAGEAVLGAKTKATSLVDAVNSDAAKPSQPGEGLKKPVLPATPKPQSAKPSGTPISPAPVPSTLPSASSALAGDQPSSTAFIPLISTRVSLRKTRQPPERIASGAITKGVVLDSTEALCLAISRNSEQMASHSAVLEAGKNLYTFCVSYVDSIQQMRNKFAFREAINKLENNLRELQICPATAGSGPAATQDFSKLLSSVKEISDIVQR
Chain of UniProt P43144 (whole entry, looked up): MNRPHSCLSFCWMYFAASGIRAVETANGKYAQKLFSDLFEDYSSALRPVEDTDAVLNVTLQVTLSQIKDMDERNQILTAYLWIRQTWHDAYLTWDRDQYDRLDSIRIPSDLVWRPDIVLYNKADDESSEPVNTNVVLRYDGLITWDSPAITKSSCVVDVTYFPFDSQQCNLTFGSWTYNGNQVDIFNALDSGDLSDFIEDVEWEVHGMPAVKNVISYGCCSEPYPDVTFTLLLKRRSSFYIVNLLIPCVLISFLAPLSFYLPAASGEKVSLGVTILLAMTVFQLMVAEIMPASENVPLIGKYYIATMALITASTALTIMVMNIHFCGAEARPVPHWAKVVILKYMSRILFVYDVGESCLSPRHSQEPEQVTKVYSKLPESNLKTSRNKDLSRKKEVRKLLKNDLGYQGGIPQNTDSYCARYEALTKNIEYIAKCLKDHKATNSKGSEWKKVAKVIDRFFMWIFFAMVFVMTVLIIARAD
Chain of UniProt Q01105 (whole entry, unmodified, looked up): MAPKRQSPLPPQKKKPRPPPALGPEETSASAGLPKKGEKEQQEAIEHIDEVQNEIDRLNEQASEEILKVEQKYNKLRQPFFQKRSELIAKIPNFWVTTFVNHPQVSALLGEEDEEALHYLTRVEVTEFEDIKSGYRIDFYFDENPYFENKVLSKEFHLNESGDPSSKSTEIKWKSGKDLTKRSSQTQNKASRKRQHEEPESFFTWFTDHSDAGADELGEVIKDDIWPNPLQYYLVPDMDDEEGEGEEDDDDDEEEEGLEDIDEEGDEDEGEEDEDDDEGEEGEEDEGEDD

SMILES | target or system | test | system | conditions | how to read | quantity | result
Cc1cccc2c1ccc1cc(C(C)C)ccc12 | Aryl hydrocarbon receptor | reporter gene, agonist, luciferase reporter | ZF-4 | 1111.11 µM | relative to: vehicle control | fold change | 1.58
Cc1ccc(N(C)C(=O)/C=C/c2ccco2)cc1 | Nicotinic acetylcholine receptor alpha9/alpha10 (Rattus norvegicus, UniProt P43144+Q9JLB5) | positive allosteric modulator | rat α9α10 expressing cells | with: ACh 10 µM |  | potentiation EC50 | inactive
Nc1ncnc2c1ncn2[C@@H]1O[C@H](COP(=O)(O)OP(=O)(O)OP(=O)(O)O)[C@@H](O)[C@H]1O | T1, DNA aptamer | amperometry |  | fit, pseudo-first order kinetic, apparent sensor |  | Kd | 315 µM
O=C(O)CCc1nccs1 | HDAC6 ZnF-UBD domain |  |  |  |  | Kd | > 1000 µM
CC[C@@H]1[C@H](F)C(=O)N[C@@H]1COc1nccc2cc(C(N)=O)c(OC)cc12 | STK16 (Homo sapiens, UniProt O75716) | ATP-site probe binding, ActivX profiling | THP-1 cell lysate | Lys1 site |  | IC50 | 0.66 µM
NC(=O)C1=CN([C@@H]2O[C@H](COP(=O)(O)OP(=O)(O)OC[C@H]3O[C@@H](n4cnc5c(N)ncnc54)[C@H](O)[C@@H]3O)[C@@H](O)[C@H]2O)C=CC1 | FSP1 F354A mutant | substrate |  | with: 100 µM co-substrate |  | Km | 36.6 ± 17.6 µM
CN1C(=O)/C(=C2\Nc3ccccc3\C2=N/O)c2ccc(Br)cc21 | Aryl hydrocarbon receptor | reporter gene, agonist, luciferase reporter | ZF-4 | 0.00128 µM | relative to: vehicle control | fold change | 1.19
Cn1cc(-c2ccc(-c3cncc(Cl)c3N3CCC4(CCNC4=O)CC3)cc2)cn1 | COLO 205 | gene expression, microarray, item: PDE3A mRNA |  | concentration not given, 6 h | relative to: untreated cells | log2 fold change | -2.77
Cc1ccc(N2CC(C(N)=O)CC2=O)cc1 (stereo not shown) | DDB1- and CUL4-associated factor 7 (Homo sapiens, UniProt P61962) | binding, affinity selection mass spectrometry |  |  | relative to: other proteins in batch | fold enrichment | 1
CCS(=O)(=O)N1CC(CC#N)(n2cc(-c3ncnc4[nH]ccc34)cn2)C1 | ORM1 (Homo sapiens, UniProt P02763) | FRET |  | concentration not given |  | binding distance | 2.71 nm
C[C@H]1CCN(c2nccc(-c3cnn4ncccc34)n2)C1 | ABL1 (Homo sapiens, UniProt P00519, F317L) |  |  | 1 µM | relative to: control | remaining binding | 71%
O=C(Nc1cccc2[nH]ccc12)c1ccccc1Cl | Alpha-synuclein (SNCA, Homo sapiens, UniProt P37840) | ThT kinetics |  | concentration not given, with: SNCA 2 µM |  | fibril formation | inhibited
O=C(O)C1CCCNC1 (stereo not shown) | SLC6A6 (Homo sapiens, UniProt P31641, G62A) | binding, microscale thermophoresis |  | 1 mM, room temperature, with: 50 nM labelled protein | higher = more binding | normalised MST signal | 0.53
Nc1nnc(-c2ccccc2O)cc1N1CCN(Cc2ccc(OCCOCCNc3cccc4c3C(=O)N(C3CCC(=O)NC3=O)C4=O)c(F)c2)CC1 (stereo not shown) | SMARCA2 (Homo sapiens, UniProt P51531) | degrader, immunoblot | SMARCA4 wild-type cells | 96 h, median of twelve cell lines |  | Dmax | 90%
CCCCCCCCCCCCC/C=C/[C@@H](O)[C@H](CO)NC(=O)CCCCCCCCCCCCCCCCCCCCCCC | Protein SET (SET, Homo sapiens, UniProt Q01105, K222D) | lipid binding, GFP pull-down LC-MS/MS | A549 overexpressing GFP-tagged protein | unit not given | relative to: vector-transfected cells | bound endogenous lipid | 0.3
O=C(CCCCCCC(=O)Nc1ccccc1)NO | HDAC8 (Homo sapiens, UniProt Q9BY41) | ITC | Hepes buffer | pH 7.5 |  | TΔS | 2.1 kcal/mol
Cc1ccc(NC(=O)NCc2ccc3c(c2)CN(C2CCC(=O)NC2=O)C3=O)cc1Cl (stereo not shown) | Sal-like protein 4 (SALL4, Homo sapiens, UniProt Q9UJQ4) | degrader, immunofluorescence | C33A |  |  | Dmax | 71 ± 8%
O=C(O)CNc1ncccn1 | HDAC6 ZnF-UBD domain |  |  |  |  | Kd | > 1000 µM
C=CC(=O)N1CCC(COCC(=O)N2CCN(c3nc(-c4cnc(N)nc4C(F)F)nc(N4CCOC[C@@H]4C)n3)CC2)CC1 | TLK1 (Homo sapiens, UniProt Q9UKI8) | KINOMEscan |  | 1 µM |  | remaining binding | 89%
